Measured values from different studies.
Protocols differ between the studies behind these lines. ± marks the error that the study gave.

For `C[N+]1(CC(=O)OC2CCCCCCCCCCC2)CCCCC1`, the ED20 was 1.9 µM (PC-3; cell viability, CellTiter Blue; 96 h).
`CCn1nc2c(c1Nc1nc(-c3ccc(-n4cnc(C)c4)c(OC)n3)cs1)CCCC2` has an Aβ38 level of about 1.5 fold (CHO APPwt/PS1 M146L; concentration not given; reference: untreated).
Under “log2 fold change”, `O=Cc1c(O)ccc2ccccc12` is recorded as 3.23 (HUVEC; RNA sequencing, item: ARRDC4; 75 µM, 24 h; reference: DMSO).
The TGI of `COc1cc2c(cc1C)NC(=O)C2=Cc1c(Cl)[nH]c2c1ccc1ccccc12` is reported as 7.24 µM (ovarian cancer subpanel of NCI-60; 48 h).
With `CC(=O)OC[C@H]1O[C@@H](Sc2sc(C(=O)c3ccc(Br)cc3)c(N)c2-c2nc3ccccc3s2)[C@H](OC(C)=O)[C@@H](OC(C)=O)[C@H]1OC(C)=O` the growth was 80.3% (OVCAR-8; SRB; 10 µM, 48 h; reference: untreated).
`C=C(CC)C(=O)c1ccc(OCC(=O)NCCCCNC(=O)COc2ccc(C(=O)C(=C)CC)c(Cl)c2Cl)c(Cl)c1Cl` has an IC10 of about 0.2 µM (CoC1/DDP; cell growth, CCK-8; 72 h).
For `CCCCCCC(CC=CCCCCCCCC(=O)OCCOCn1cnc2c(=O)[nH]c(N)nc21)OC(=O)CCCCC1SCC2NC(=O)NC21` (stereo not drawn), the uptake was about 43% (HCEC; 37 °C, sodium-free buffer; reference: uptake with sodium).
`CCC12CCc3c(c4ccccc4n3C)CCN(CC3OC31)C2` (stereo not drawn): cytokine secretion “decreased” (BV-2; ELISA, item: TNF-alpha, IL-6, IL-1beta, MCP-1; concentration not given, 1 h pretreatment, added: LPS).
For `[Cl][Au].[Se]=c1n(C23CC4CC(CC(C4)C2)C3)ccn1C12CC3CC(CC(C3)C1)C2`, the resistance factor was 1.3 (LoVo MDR; MTT; reference: LoVo MDR over LoVo).
`CN(C)c1cc2ccccc2c(N)n1`: “COL1A1 mRNA level” “decreased” (LX-2; qPCR; concentration not given, 6 h pre-treatment, added: TGF-β1 5 ng/mL for 12 h).
With `Cc1cccc(C)c1OCC(=O)N[C@@H](Cc1ccccc1)[C@H](C[C@H](Cc1ccccc1)NC(=O)[C@H](C(C)C)N1CCCNC1=O)OC(=O)[C@H](CC(C)C)NC(=O)[C@@H](N)Cc1cnc[nH]1` the remaining uptake was about 30% (cell line; transport, inhibitor; 25 µM, added: [3H]-GlySar; reference: untreated).
For `COc1cc(CNC(=O)C[C@H](C)CCC=C(C)C)ccc1OCc1cn(-c2ccc(Br)cc2)nn1`, the growth was 80.6% (MDA-MB-231/ATCC; SRB; 10 µM, 48 h).
`CCN1CCN(Cc2ccc(C(=O)Nc3ccc(C)c(NCc4cnc5[nH]ccc5c4OC)c3)cc2C(F)(F)F)CC1` has a GI50 of 2.76 µM (SW480, overexpressing wild type; cell proliferation; 48 h).
Under protein level, `COc1ccc(CC2COC(=O)C2Cc2ccc3c(c2)OCO3)cc1OC` (mixture of isomers) is recorded as “increased” (A2780cis; western blot, item: Bax; IC50, 48 h; reference: 0 h).
The growth of `COc1cc(CNC(=O)C[C@H](C)CCC=C(C)C)ccc1OCc1cn(-c2ccc(F)cc2)nn1` is reported as 76.8% (A549/ATCC; SRB; 10 µM, 48 h).
`O=C1CCC(N2C(=O)c3ccc(N4CCC(C(=O)N5CCC(CCN6CCC(CNC(=O)c7cccc(-c8noc(C(F)(F)F)n8)c7)(c7nc(-c8ccccc8)cs7)CC6)CC5)CC4)cc3C2=O)C(=O)N1` (stereo not drawn) gave an upregulated genes of 442 genes (DHL6; RNA sequencing; 3 µM, 12 h).
The EC50 of `CCC/C(=C\C1=C(F)C(=O)c2ccccc2C1=O)C(=O)N(CC)CC` is reported as 12.6 ± 2.11 µM (Pa03C cells; HIF1α reporter gene, luciferase reporter; 24 h, 1% oxygen hypoxia).
`O=C(O)CCC(NP(=O)(O)OCCC[C@@H](NC(=O)CC[C@H](NC(=O)CCCCCNC(=O)c1ccc([18F])cc1)C(=O)O)C(=O)O)C(=O)O` (stereo partly drawn) gave a cell uptake of 1.32 ± 0.52% (CWR22Rv1; concentration not given, 4 h).
The TGI of `CC/C=C\C/C=C\C/C=C\C/C=C\C/C=C\C/C=C\CCC(=O)Nc1ccn(C2OC(CO)C(O)C2(F)F)c(=O)n1` (stereo not drawn) is reported as 11.4 µM (OVCAR-8; NCI60 screen).
`FC(F)(F)c1ccnc(-c2cc(C(F)(F)F)ccn2)c1.FC(F)(F)c1ccnc(-c2cc(C(F)(F)F)ccn2)c1.[Cl-].[Cl-].[Ru+2].c1csc(-c2ccc(-c3ccc(-c4nc5c6cccnc6c6ncccc6c5[nH]4)s3)s2)c1` — result for “mean phototherapeutic index”: 300 (SK-MEL-28; cell viability; hypoxia 1% O2, added: visible light; reference: dark EC50 over light EC50).
For `CC(Cc1ccc(Cl)cc1)=C(c1ccc(Cl)cc1)c1ccc(OCCN(C)C)cc1`, the GI50 was 4.55 µM (786-0; cell growth or viability).
`CCCCCCCCCC[N]1C(=O)c2cccc[n+]2[Ir]1[Cl].Cc1c(C)c(C)[c-](C)c1C` has a cell viability of 1.2 fold (SH-SY5Y; SRB; concentration not given, added: 4-hydroxynonenal 150 µM; reference: 4-hydroxynonenal alone).
`CN1C(=CC2=C(O)C(=CC3=[N+](CCC[N+](C)(C)C)c4ccc(F)cc4C3(C)C)C2=O)C(C)(C)c2ccccc21` — result for cellular uptake: “decreased” (ID8; 2 µM, 30 min, 4 °C).
`Cc1nn(C)c(O)c1-c1nc2cc(Cl)c(Cl)cc2[nH]c1=O` gave an apoptotic cells of about 70% (TF-1; caspase 3/7; IC50, 72 h).
For `COc1cc(/C=C/C(=O)/C=C(O)/C=C/c2ccc(OCC(=O)N3CCOCCOCCOCCOCC3)c(OC)c2)ccc1OCC(=O)N1CCOCCOCCOCCOCC1`, the inhibition was 12.3% (COS-7; cell growth or viability, SRB; 5 µM).
`COc1ccc2c(c1)/C(=N\Nc1nnc3n1N=C(c1ccccc1)CS3)C(=O)N2` has an inhibition of 64% (SR; cell growth or viability, SRB; 10 µM).
For `CCN1/C(=C/C=C2\CCCC(/C=C/C3=[N+](CC)c4ccccc4C3(C)C)=C2NCCCCCCCCN2CCC(Nc3nc4ccccc4n3Cc3ccc(F)cc3)CC2)C(C)(C)c2ccccc21`, protein level read “increased” (U87; western blot, item: ATF4; 3 µM, 24 h).
The phototoxicity index of `COc1ccc(/C=C/C2=[N+]3C(=C(CO)c4c(C)cc(/C=C/c5ccc(OC)cc5)n4[B-]3(F)F)C(C)=C2C=O)cc1` is reported as 27 ± 5 (RPE-1; resazurin; added: 645 nm light; reference: dark over light IC50).
`Cc1ccc(-c2nc3ccc(C)cn3c2CN2CCN(c3ccc(F)cc3)CC2)cc1` gave an EC50 of over 50 µM (CRL8155; cell growth or viability; 48 h).
`COc1cc(CNC(=O)C[C@H](C)CCC=C(C)C)ccc1OCc1cn(-c2ccc([N+](=O)[O-])cc2)nn1` gave a growth percent of 64.2% (MOLT-4 leukaemia cells; SRB; 10 µM, 48 h).
With `O=C(c1ccc2ccccc2c1)c1cn(-c2ccccc2)nc1C1=Nn2c(Cc3nnc4n3N=C(c3nn(-c5ccccc5)cc3C(=O)c3ccc5ccccc5c3)CS4)nnc2SC1` the S-phase cells was 39.2% (MCF7 cells; flow cytometry; IC50, 48 h).
The growth percent of `COc1cc(CNC(=O)C[C@H](C)CCC=C(C)C)ccc1OCc1cn(-c2ccc(Cl)cc2Cl)nn1` is reported as 84% (MOLT-4 leukaemia cells; SRB; 10 µM, 48 h).
Under “IL-1β expressing cells”, `COc1ccc(NC(=O)COc2ccc(/C=C/C(C)=N/O)cc2OC)cc1` is recorded as 45% (SH-SY5Y; flow cytometry; 5 µM, added: amyloid beta 10 µM).
For `CC1(C)C2CC[C@]3(C)[C@H](C(=O)C=C4[C@@H]5C[C@@](C)(C(=O)N6CCN(C(=O)Cc7ccc(Cl)cc7)CC6)CC[C@]5(C)CC[C@]43C)[C@@]2(C)CC[C@@H]1OC(=O)Cc1ccc(Cl)cc1` (stereo partly drawn), the inhibition was 0% (KARPAS-299; cell growth or viability, MTT; 2 µg/mL).
The growth percent of `COc1cc(CNC(=O)C[C@H](C)CCC=C(C)C)ccc1OCc1cn(-c2cccc(Cl)c2)nn1` is reported as 63.3% (MCF7 breast cancer cells; SRB; 10 µM, 48 h).
`COc1ccc([C@@H]2CC(=O)c3c(O)cc(O[C@@H]4O[C@H](CO[C@@H]5O[C@@H](C)[C@H](O)[C@@H](O)[C@H]5O)[C@@H](O)[C@H](O)[C@H]4O)cc3O2)cc1O` gave a cell count of 13300 ± 630 (A549; trypan blue exclusion; 100 µg/mL, 48 h).
For `Cc1nn(-c2ccc(S(=O)(=O)N[C@H](CO)CC(C)C)cc2)c2nn3nnnc3nc12`, the tail DNA was 38.8 ± 4.36% (PC-3; DNA damage, alkaline comet; 1 µM, 24 h).
`COc1cc(CNC(=O)C[C@H](C)CCC=C(C)C)ccc1OCc1cn(-c2ccccc2Cl)nn1` gave a growth of 64.1% (A549/ATCC; SRB; 10 µM, 48 h).
`O=S(=O)(CC(F)(F)F)Nc1ccc(Oc2ncccc2-c2ccnc(N[C@H]3CCCNC3)n2)c2ccccc12`: “cleaved caspase-3 level” “decreased” (INS1 cells with Dox-inducible IRE1α; immunoblot; 20 µM, added: 5 ng/mL doxycycline).
For `CO[C@@H]1[C@@H](O[C@@H]2O[C@H](C)[C@@H](O[C@H]3C[C@@](C)(O)[C@@H](OC(=O)C4CCCCC4)[C@H](C)O3)[C@H](N(C)C)[C@H]2O)[C@@H](CC=O)C[C@@H](C)[C@@H](O[C@H]2CC[C@H](N(C)C)[C@@H](C)O2)/C=C/C=C/C[C@@H](C)OC(=O)C[C@H]1O`, the selectivity index was 3.4 (GES-1 and HGC-27; cell growth, CCK-8; 72 h; reference: IC50 GES-1 over HGC-27).
For `CN1CCN(c2ccc(Nc3ncc(Cl)c(Nc4ccccc4P(C)(C)=O)n3)cc2Br)CC1`, AKT phosphorylation read “inhibited” (PC9-OR; western blot; concentration not given).
`C=CC(=O)Oc1ccc(Cl)cc1C(=O)Nc1ccc([N+](=O)[O-])cc1Cl`: cell growth “decreased” (PC-3 (AR-negative); concentration not given, 3 days, dose-dependent).
Under “number of proteins downregulated”, `O=C1c2c(O)cc(O)cc2-c2c(-c3ccc(O)cc3)oc3cc(O)cc1c23` is recorded as 92 (MCF7 cells; label-free MS proteomics; 10 µM).
`COc1cc(CNC(=O)C[C@H](C)CCC=C(C)C)ccc1OCc1cn(-c2cccc(C(F)(F)F)c2)nn1` gave a growth percent of 56.8% (MCF7 breast cancer cells; SRB; 10 µM, 48 h).
`CCN(CC)CC(=O)Nc1cccc(-n2cc(-c3ccc4ccc(-c5cn(-c6cccc(NC(=O)CN(CC)CC)c6)nn5)cc4c3)nn2)c1` gave a mRNA level of 3.9% (RCC4; qRT-PCR, item: HIF-1α; 5 x IC50, 2 h; reference: untreated).
The selectivity index of `C#CCN(CC(=O)O[C@H]1[C@H](C)O[C@@H](O[C@H]2[C@H](N(C)C)[C@@H](O)[C@H](O[C@H]3[C@@H](CC=O)C[C@@H](C)[C@@H](O[C@H]4CC[C@H](N(C)C)[C@@H](C)O4)/C=C/C=C/C[C@@H](C)OC(=O)C[C@@H](O)[C@@H]3OC)O[C@@H]2C)C[C@@]1(C)O)Cc1ccc(C(F)(F)F)cc1` is reported as 3.88 (GES-1 and HGC-27; cell growth, CCK-8; 72 h; reference: IC50 GES-1 over HGC-27).
For `COc1cc(CNC(=O)C[C@H](C)CCC=C(C)C)ccc1OCc1cn(-c2ccc(C#N)cc2)nn1`, the growth percent was 81.5% (IGROV-1 ovarian cancer cells; SRB; 10 µM, 48 h).
The viability of `COc1ccc([C@@H]2CC(=O)c3c(O)cc(O[C@@H]4O[C@H](CO[C@@H]5O[C@@H](C)[C@H](O)[C@@H](O)[C@H]5O)[C@@H](O[C@H]5O[C@H](CO)[C@@H](O)[C@H](O)[C@H]5O)[C@H](O)[C@H]4O)cc3O2)cc1O` is reported as 31.2% (A549; cell growth or viability, MTS; 150 µg/mL, 48 h).

Repeated from above:
`COc1cc(CNC(=O)C[C@H](C)CCC=C(C)C)ccc1OCc1cn(-c2ccccc2Cl)nn1` gave a growth of 64.1% (A549/ATCC; SRB; 10 µM, 48 h).
`COc1ccc([C@@H]2CC(=O)c3c(O)cc(O[C@@H]4O[C@H](CO[C@@H]5O[C@@H](C)[C@H](O)[C@@H](O)[C@H]5O)[C@@H](O)[C@H](O)[C@H]4O)cc3O2)cc1O` gave a cell count of 13300 ± 630 (A549; trypan blue exclusion; 100 µg/mL, 48 h).
Under “number of proteins downregulated”, `O=C1c2c(O)cc(O)cc2-c2c(-c3ccc(O)cc3)oc3cc(O)cc1c23` is recorded as 92 (MCF7 cells; label-free MS proteomics; 10 µM).
`CCn1nc2c(c1Nc1nc(-c3ccc(-n4cnc(C)c4)c(OC)n3)cs1)CCCC2` has an Aβ38 level of about 1.5 fold (CHO APPwt/PS1 M146L; concentration not given; reference: untreated).
`O=S(=O)(CC(F)(F)F)Nc1ccc(Oc2ncccc2-c2ccnc(N[C@H]3CCCNC3)n2)c2ccccc12`: “cleaved caspase-3 level” “decreased” (INS1 cells with Dox-inducible IRE1α; immunoblot; 20 µM, added: 5 ng/mL doxycycline).
`CCCCCCCCCC[N]1C(=O)c2cccc[n+]2[Ir]1[Cl].Cc1c(C)c(C)[c-](C)c1C` has a cell viability of 1.2 fold (SH-SY5Y; SRB; concentration not given, added: 4-hydroxynonenal 150 µM; reference: 4-hydroxynonenal alone).
